# Measurements pooled from the literature.
# Compare with care: the assays were run in different laboratories. Values joined by “and” are separate records of one study, mostly repeats; a detail may differ.
# Chain of UniProt Q9UPE1 (whole entry, looked up): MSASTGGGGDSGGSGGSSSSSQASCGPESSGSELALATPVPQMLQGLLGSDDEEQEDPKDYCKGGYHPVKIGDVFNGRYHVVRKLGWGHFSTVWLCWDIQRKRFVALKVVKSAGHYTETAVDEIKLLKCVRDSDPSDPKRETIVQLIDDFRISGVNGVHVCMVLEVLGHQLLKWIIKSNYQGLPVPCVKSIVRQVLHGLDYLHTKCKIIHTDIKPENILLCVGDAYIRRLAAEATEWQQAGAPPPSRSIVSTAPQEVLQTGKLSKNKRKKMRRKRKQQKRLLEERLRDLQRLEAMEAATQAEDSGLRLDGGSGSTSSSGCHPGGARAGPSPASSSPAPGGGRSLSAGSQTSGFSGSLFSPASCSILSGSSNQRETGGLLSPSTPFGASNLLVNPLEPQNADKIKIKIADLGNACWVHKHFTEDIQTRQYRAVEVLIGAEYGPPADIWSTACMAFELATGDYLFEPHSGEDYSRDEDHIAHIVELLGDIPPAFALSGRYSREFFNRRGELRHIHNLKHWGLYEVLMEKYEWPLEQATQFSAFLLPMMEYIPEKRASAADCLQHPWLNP
# Chain of UniProt Q9Y243 (whole entry, looked up): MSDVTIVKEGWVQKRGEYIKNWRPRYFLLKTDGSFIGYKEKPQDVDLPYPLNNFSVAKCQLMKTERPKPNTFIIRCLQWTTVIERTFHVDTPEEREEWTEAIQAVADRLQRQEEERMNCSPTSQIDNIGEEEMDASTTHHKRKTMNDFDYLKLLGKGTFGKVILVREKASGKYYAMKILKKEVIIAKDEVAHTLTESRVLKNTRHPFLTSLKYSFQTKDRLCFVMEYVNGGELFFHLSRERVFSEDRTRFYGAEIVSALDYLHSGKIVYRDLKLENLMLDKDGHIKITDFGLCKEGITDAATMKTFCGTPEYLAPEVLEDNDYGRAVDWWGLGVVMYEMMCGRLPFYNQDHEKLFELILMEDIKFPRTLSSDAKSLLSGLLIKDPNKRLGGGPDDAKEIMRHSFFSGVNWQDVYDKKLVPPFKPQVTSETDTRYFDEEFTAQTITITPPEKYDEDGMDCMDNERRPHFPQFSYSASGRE
# Chain of UniProt Q9UPZ9 (whole entry, looked up): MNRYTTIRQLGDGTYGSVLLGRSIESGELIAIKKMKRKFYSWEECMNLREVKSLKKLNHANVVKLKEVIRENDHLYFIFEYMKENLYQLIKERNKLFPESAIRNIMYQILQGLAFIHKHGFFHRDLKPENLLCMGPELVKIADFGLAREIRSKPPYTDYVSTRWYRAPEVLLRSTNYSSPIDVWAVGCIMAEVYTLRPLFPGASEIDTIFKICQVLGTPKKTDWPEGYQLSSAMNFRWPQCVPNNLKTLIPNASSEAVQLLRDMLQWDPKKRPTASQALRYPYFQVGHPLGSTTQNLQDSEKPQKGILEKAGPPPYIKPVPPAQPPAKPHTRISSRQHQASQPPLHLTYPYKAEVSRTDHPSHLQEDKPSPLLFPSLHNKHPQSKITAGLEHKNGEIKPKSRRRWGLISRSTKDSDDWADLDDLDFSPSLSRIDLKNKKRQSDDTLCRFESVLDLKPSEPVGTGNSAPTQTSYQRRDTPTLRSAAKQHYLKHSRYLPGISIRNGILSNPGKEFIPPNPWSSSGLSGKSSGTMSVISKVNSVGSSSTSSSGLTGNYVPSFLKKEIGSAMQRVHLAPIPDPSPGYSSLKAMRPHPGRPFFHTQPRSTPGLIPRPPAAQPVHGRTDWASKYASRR
# Chain of UniProt P33261 (whole entry, looked up): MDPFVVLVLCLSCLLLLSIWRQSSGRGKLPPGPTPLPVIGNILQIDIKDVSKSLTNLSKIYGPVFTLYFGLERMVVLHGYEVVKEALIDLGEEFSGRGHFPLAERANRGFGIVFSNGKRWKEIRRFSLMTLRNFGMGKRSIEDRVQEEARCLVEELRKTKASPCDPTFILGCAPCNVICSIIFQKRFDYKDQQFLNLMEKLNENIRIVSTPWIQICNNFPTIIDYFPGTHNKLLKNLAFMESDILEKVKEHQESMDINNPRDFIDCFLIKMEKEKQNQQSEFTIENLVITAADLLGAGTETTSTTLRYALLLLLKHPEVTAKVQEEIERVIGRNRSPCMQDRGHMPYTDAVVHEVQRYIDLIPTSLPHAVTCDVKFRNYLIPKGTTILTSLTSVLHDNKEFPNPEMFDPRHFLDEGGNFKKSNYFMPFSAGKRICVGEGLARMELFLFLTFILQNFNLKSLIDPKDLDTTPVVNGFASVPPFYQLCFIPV
# Chain of UniProt P11229 (whole entry, looked up): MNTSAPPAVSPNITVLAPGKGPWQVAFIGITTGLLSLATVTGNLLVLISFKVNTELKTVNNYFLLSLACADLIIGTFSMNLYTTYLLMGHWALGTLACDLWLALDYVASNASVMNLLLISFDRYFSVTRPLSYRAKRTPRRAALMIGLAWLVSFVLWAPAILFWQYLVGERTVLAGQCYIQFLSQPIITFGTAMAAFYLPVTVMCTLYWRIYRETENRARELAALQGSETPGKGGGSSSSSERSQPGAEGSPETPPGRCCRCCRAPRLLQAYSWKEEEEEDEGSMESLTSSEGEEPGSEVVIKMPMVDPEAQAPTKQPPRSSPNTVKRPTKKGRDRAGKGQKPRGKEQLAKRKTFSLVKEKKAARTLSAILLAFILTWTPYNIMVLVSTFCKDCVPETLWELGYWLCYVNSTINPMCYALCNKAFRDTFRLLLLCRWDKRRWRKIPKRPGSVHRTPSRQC
# Chain of UniProt Q01726 (whole entry, looked up): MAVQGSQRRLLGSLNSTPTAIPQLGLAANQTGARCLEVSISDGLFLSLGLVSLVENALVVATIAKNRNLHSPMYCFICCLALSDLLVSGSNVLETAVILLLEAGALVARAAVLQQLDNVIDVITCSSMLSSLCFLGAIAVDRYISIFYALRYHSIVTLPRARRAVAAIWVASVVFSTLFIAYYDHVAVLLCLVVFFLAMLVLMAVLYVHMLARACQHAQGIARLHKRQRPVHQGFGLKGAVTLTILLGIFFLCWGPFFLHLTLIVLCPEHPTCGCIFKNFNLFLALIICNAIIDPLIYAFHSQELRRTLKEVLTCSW
SMILES,tested on,assay,system,setting,endpoint,value
N=c1c2c(-c3ccccc3)c(-c3ccccc3)n(Cc3ccccc3)c2ncn1[C@H]1CC[C@H](O)CC1,,metabolic stability,"human, liver microsomes",1 µM,half-life,> 120 min
CC(C)C[C@@H]1NC(=O)[C@@H](CCCNC(=N)N)NC(=O)[C@@H](Cc2ccc(O)cc2)NC(=O)[C@H]2CCCN2C(=O)[C@H](CC(C)C)NC(=O)[C@H](CC(C)C)NC(=O)[C@@H]2CCCN2C(=O)[C@H]([C@@H](C)O)NC(=O)[C@H]([C@@H](C)O)NC(=O)CNC(=O)CNC1=O,,,aqueous buffer,"18 h, pH 7.4",solubility,603 µM
COc1ncccc1-c1cnn2ccc(N3CCN(C(=O)OC(C)C)CC3)nc12,"CILK1 (Homo sapiens, UniProt Q9UPZ9)","binding, competition with immobilised ligand",,1 µM,remaining binding,100%
O=C1CC[C@H](N2Cc3c(ccc4c3OCC43CCN(C[C@@H]4CCC5(CCN(c6ccc([C@@H]7c8ccc(O)cc8CC[C@@H]7c7ccccc7)cc6)CC5)OC4)CC3)C2=O)C(=O)N1,,,"rat, plasma","intravenous, 1 mg/kg",clearance,9.7 mL/min/kg
CC(C)C[C@H](NC(=O)[C@@H](NC(=O)/C=C/c1ccc(-c2ccccc2)cc1)C(C)C)C(=O)N[C@H](C=O)C[C@@H]1CCCNC1=O,A549,"cell growth or viability, MTT",,24 h,CC50,> 100 µM
CC(C)C[C@H]1C(=O)O[C@H](Cc2ccc(N3CCOCC3)cc2)C(=O)N(C)[C@@H](CC(C)C)C(=O)O[C@H](C)C(=O)N(C)[C@@H](CC(C)C)C(=O)O[C@H](Cc2ccc(N3CCOCC3)cc2)C(=O)N(C)[C@@H](CC(C)C)C(=O)O[C@H](C)C(=O)N1C,,,aqueous buffer,"18 h, pH 7.4",solubility,1 µM
CCC[C@@](N)(CO)CCc1ccc(OCCCCCC(C)C)cc1,"CYP2C19 (Homo sapiens, UniProt P33261)","enzyme activity, inhibitor",,,IC50,> 50 µM
C#Cc1ccc2c(c1)C(c1ccccn1)=NCc1c(-c3cnco3)ncn1-2,,,water,"80 min, 37 °C",kinetic solubility,417 µg/mL
Cc1nn(C)cc1-c1nc2c(N3CCN(Cc4ccc(Cl)cc4)CC3)c(Cl)cnc2[nH]1,"SRPK3 (Homo sapiens, UniProt Q9UPE1)","binding, competition with immobilised ligand",,1 µM,remaining binding,39%
CN[C@@H]1C[C@H]2O[C@@](C)([C@@H]1OC)n1c3ccccc3c3c4c(c5c6ccccc6n2c5c31)C(=O)NC4,NCI-H1975,"cell growth or viability, MTT",,100 µg,viability,23%
N.N.[Cl][Pt][Cl],KU812,"cell growth or viability, ATP luminescence",,"10 µM, 72 h",inhibition,98%
CC(C)CC(=O)OC[C@H]1O[C@@](C#N)(c2ccc3c(N)ncnn23)[C@H](O)[C@@H]1O,"MC1R (Homo sapiens, UniProt Q01726)",cell-free assay,,20 µM,inhibition,3%
CC[C@H](C)[C@H]1C(=O)N2CCC[C@H]2C(=O)N[C@@H](CO)C(=O)N[C@H]([C@H](C)O)C(=O)N[C@H](Cc2ccc(O)cc2)C(=O)N[C@@H](CC(C)C)C(=O)NCC(=O)N[C@@H](C(C)C)C(=O)N[C@@H](C)C(=O)N[C@@H](Cc2ccccc2)C(=O)N2CCC[C@H]2C(=O)N1C,,,aqueous buffer,"18 h, pH 7.4",solubility,589 µM
[2H]c1c([2H])c([C@]2([2H])CCCN2C(=O)C(C)(C)Oc2ccc3cn[nH]c3c2)c([2H])c([2H])c1C([2H])([2H])[2H],"AKT3 (Homo sapiens, UniProt Q9Y243)","binding, competition with immobilised ligand",,1 µM,remaining binding,98%
COCC1=N[C@@]2(O)[C@H](C(=O)N(C)OC)[C@@H](c3ccccc3)[C@]3(c4ccc(OC)cc4)Oc4cc(OC)cc(OC)c4[C@]23N1,,metabolic stability,"male CD-1 mouse, liver microsomes","1 µM, pH 7.4",half-life,4.5 min
CC(C)C[C@H](NC(=O)[C@@H](NC(=O)C1CCCCC1)C(C)C)C(=O)N[C@H](C=O)C[C@@H]1CCCNC1=O,A549,"cell growth or viability, MTT",,24 h,CC50,> 100 µM
Nc1ncc(-c2nc(N3CCOCC3)nc(N3CCOCC3)n2)c(C(F)F)n1,"CHRM1 (Homo sapiens, UniProt P11229)","cell-free assay, radioligand",,10 µM,remaining signal,111%
C=C(C)[C@@]12O[C@@]3(c4ccccc4)O[C@@H]1[C@@H]1[C@@H]4O[C@]4(CO)[C@@H](O)[C@]4(O)C(=O)C(C)=C[C@H]4[C@@]1(O3)[C@H](C)[C@H]2OC(=O)/C=C/C=C/c1ccccc1,MT4,cell growth or viability,,,IC50,8.55 µM and > 5 µM

# For quick reference, copied from above:
SMILES,tested on,assay,system,setting,endpoint,value
C#Cc1ccc2c(c1)C(c1ccccn1)=NCc1c(-c3cnco3)ncn1-2,,,water,"80 min, 37 °C",kinetic solubility,417 µg/mL
Cc1nn(C)cc1-c1nc2c(N3CCN(Cc4ccc(Cl)cc4)CC3)c(Cl)cnc2[nH]1,"SRPK3 (Homo sapiens, UniProt Q9UPE1)","binding, competition with immobilised ligand",,1 µM,remaining binding,39%
CN[C@@H]1C[C@H]2O[C@@](C)([C@@H]1OC)n1c3ccccc3c3c4c(c5c6ccccc6n2c5c31)C(=O)NC4,NCI-H1975,"cell growth or viability, MTT",,100 µg,viability,23%
